# Measurements pooled from the literature.
# Every numbered part comes from another study and shows a few of its results, in no order. Values joined by “and” are separate records of one study, mostly repeats; a detail may differ.
# Sequence of UniProt Q15375 (whole entry, looked up): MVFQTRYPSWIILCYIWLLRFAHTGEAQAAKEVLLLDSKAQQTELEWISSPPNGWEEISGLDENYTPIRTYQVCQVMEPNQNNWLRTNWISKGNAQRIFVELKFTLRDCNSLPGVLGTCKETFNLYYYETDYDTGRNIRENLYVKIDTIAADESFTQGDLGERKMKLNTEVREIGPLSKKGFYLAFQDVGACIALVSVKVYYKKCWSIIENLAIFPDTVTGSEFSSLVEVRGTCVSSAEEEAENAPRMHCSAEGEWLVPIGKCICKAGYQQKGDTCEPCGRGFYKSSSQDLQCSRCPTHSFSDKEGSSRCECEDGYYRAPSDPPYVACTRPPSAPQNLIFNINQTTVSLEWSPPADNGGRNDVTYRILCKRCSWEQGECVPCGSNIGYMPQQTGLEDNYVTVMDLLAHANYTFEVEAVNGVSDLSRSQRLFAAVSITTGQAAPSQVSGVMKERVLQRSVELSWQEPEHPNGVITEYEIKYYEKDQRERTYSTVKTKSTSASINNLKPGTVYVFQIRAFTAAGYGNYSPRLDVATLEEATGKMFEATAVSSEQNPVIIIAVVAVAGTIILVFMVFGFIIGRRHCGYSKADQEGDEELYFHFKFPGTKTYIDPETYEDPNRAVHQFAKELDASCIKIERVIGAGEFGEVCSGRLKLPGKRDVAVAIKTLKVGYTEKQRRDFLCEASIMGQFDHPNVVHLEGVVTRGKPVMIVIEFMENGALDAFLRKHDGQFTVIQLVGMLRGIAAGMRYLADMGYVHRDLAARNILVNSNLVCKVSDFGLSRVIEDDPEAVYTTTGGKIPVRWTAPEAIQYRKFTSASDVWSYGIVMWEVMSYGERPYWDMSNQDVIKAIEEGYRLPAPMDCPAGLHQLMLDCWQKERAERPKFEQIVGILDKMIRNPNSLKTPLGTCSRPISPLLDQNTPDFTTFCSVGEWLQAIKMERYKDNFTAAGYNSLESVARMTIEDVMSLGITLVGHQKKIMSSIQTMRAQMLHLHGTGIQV
# Sequence of UniProt Q15746 (whole entry, looked up): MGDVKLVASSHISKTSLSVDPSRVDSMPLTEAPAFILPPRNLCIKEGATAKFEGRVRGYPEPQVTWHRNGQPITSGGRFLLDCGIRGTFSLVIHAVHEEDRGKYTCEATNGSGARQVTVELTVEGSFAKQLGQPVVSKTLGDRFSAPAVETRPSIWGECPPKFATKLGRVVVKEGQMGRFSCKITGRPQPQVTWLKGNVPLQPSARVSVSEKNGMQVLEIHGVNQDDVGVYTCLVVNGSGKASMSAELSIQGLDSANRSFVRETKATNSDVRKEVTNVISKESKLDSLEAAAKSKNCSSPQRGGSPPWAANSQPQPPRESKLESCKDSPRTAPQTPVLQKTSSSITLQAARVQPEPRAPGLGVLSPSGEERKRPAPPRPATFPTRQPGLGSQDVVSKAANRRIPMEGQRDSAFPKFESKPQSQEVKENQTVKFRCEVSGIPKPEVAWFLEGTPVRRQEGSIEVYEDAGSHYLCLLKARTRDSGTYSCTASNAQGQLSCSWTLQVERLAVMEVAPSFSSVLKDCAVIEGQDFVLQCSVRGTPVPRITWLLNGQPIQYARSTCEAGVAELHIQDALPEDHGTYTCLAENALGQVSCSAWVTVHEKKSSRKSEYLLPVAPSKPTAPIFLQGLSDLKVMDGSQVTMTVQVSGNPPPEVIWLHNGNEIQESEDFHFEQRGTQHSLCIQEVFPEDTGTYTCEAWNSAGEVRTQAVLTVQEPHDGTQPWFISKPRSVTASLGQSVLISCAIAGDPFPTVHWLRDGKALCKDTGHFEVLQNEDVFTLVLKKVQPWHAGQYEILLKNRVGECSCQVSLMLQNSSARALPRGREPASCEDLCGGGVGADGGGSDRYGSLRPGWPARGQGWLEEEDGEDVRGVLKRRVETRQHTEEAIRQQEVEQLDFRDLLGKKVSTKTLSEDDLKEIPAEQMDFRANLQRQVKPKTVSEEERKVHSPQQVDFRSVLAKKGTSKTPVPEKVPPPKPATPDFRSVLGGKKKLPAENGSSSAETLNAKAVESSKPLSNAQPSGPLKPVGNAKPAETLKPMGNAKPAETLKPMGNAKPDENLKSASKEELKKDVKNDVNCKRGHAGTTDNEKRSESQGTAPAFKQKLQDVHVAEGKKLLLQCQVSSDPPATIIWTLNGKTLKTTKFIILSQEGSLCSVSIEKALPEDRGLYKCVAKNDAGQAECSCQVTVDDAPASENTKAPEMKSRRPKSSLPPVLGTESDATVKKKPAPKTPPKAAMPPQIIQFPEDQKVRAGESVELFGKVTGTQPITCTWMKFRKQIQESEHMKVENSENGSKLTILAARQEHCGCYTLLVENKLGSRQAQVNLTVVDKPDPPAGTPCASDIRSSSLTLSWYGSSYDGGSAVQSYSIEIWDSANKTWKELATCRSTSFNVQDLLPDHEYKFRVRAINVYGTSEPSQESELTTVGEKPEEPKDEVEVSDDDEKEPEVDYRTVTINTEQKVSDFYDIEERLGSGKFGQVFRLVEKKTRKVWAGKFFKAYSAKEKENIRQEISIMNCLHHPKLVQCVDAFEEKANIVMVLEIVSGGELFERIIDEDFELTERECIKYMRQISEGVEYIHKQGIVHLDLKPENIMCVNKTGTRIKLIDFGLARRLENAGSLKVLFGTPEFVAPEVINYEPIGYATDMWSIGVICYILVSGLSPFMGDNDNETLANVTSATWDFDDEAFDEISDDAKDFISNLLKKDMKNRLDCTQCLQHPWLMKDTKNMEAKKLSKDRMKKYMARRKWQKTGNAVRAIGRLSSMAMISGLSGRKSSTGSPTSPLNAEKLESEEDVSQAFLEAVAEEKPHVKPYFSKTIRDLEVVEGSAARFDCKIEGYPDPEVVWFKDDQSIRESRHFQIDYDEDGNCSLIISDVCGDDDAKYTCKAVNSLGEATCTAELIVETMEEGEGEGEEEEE
# Sequence of UniProt Q15418 (whole entry, looked up): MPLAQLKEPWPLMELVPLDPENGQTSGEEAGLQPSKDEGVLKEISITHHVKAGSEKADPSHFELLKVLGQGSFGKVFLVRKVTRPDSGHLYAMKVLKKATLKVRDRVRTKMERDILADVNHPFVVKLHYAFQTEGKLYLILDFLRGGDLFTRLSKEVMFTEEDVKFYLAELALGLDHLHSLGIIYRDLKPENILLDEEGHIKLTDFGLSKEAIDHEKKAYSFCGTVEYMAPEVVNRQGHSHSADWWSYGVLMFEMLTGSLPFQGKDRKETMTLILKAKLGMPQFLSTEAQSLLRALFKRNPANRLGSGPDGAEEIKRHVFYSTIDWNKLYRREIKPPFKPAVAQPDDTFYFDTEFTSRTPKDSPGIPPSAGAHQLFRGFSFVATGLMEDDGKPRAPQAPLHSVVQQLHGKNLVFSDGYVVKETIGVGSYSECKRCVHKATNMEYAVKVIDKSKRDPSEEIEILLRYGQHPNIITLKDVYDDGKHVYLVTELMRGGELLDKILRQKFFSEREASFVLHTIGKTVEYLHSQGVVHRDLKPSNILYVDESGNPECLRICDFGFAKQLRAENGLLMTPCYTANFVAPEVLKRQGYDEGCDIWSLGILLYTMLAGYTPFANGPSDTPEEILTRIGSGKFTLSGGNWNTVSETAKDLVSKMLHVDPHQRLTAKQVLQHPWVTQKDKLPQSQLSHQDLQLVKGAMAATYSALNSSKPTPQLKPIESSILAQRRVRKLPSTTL
# Sequence of UniProt P33981 (whole entry, looked up): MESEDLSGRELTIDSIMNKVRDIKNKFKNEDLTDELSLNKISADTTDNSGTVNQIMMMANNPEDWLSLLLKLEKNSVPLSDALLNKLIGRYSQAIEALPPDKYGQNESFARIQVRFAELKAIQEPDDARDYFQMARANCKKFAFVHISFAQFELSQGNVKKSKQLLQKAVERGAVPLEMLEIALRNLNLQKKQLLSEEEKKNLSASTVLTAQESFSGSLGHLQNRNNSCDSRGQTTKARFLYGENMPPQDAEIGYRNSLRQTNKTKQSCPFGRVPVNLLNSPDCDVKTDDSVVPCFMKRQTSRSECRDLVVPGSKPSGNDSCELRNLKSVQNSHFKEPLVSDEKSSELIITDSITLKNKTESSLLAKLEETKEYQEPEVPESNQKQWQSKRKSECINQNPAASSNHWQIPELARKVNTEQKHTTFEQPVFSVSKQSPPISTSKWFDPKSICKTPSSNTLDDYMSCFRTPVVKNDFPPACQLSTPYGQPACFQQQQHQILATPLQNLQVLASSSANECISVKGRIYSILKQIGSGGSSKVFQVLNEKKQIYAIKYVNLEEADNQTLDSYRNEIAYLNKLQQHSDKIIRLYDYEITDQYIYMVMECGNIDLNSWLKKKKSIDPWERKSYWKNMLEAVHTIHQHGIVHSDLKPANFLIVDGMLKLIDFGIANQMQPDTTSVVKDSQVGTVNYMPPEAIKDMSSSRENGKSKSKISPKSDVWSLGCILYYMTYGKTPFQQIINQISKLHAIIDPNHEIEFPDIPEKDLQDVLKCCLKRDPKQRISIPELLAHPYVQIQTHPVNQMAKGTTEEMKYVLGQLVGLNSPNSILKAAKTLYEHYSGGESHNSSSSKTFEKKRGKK
# Sequence of UniProt P52564 (whole entry, looked up): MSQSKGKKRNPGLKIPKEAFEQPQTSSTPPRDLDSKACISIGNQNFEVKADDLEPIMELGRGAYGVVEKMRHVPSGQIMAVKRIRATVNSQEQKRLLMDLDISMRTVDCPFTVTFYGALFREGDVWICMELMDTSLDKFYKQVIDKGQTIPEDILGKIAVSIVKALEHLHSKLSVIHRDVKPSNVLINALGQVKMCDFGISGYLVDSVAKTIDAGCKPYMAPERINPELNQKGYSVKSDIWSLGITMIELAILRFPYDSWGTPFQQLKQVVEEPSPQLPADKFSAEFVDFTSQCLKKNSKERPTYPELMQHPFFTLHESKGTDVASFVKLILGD

# Study 1
# SMILES: CCCOc1ccc([C@@H]2[C@@H](C(=O)O)[C@H](c3ccc4c(c3)OCO4)CN2CC(=O)Nc2c(CC)cccc2CC)cc1
# Technique: competition with immobilised ligand
# Tested at: 1 µM
target,test,remaining binding [%]
"PRKD2 (Homo sapiens, UniProt Q9BZL6)",cell-free assay,100
"CDK11B (Homo sapiens, UniProt P21127)",cell-free assay,94
"PIK3C3 (Homo sapiens, UniProt Q8NEB9)",cell-free assay,88
"TTK (Homo sapiens, UniProt P33981)",cell-free assay,100
"PLK2 (Homo sapiens, UniProt Q9NYY3)",cell-free assay,86
"PIK3C2B (Homo sapiens, UniProt O00750)",cell-free assay,94
"BRAF (Homo sapiens, UniProt P15056, V600E)",cell-free assay,98
"Tyrosine-protein kinase ABL1, non-phosphorylated (ABL1, Homo sapiens, UniProt P00519, F317L)",cell-free assay,82
"KIT (Homo sapiens, UniProt P10721, D816H)",cell-free assay,94
"EGFR (Homo sapiens, UniProt P00533, del747-752/P753S)",cell-free assay,58
"DAPK1 (Homo sapiens, UniProt P53355)",cell-free assay,83
"CAMK2D (Homo sapiens, UniProt Q13557)",cell-free assay,88
"ROCK2 (Homo sapiens, UniProt O75116)",cell-free assay,84
"TSSK3 (Homo sapiens, UniProt Q96PN8)",cell-free assay,81
"TESK1 (Homo sapiens, UniProt Q15569)",cell-free assay,100
"Myosin-IIIa (MYO3A, Homo sapiens, UniProt Q8NEV4)",binding,100
"NTRK3 (Homo sapiens, UniProt Q16288)",cell-free assay,91
"PKN1 (Homo sapiens, UniProt Q16512)",cell-free assay,100
"MYLK (Homo sapiens, UniProt Q15746)",cell-free assay,100
"PI4KB (Homo sapiens, UniProt Q9UBF8)",cell-free assay,100
"EPHA7 (Homo sapiens, UniProt Q15375)",cell-free assay,92
"MAP2K6 (Homo sapiens, UniProt P52564)",cell-free assay,100

# Study 2
# SMILES: CC(C)C[C@@H]1NC(=O)[C@@H](N(C)C(=O)[C@H](CC2CCC2)NC(=O)[C@@H]2C[C@@H](F)CN2C(=O)C2(C(F)(F)F)CC(F)(F)C2)CCCCNC(=O)C2(CC2)NC(=O)[C@H](Cc2cc(Cl)ccc2Cl)N(C)C1=O
cell line,test,setting,scale,cell count
NCI-H82,Vi-Cell counting,"2 µM, 6 days",reference: DMSO,0.39 and 0.591 and 0.4
NCI-H82,Vi-Cell counting,"6 µM, 6 days",reference: DMSO,0.08 and 0.15
NCI-H446,Vi-Cell counting,"6 nM, 3 days, without Mps1 inhibitor",reference: DMSO,0.56 and 0.487
NCI-H1299,Vi-Cell counting,"2 µM, 6 days",reference: DMSO,0.564 and 0.3 and 0.583
NCI-H82,Vi-Cell counting,"60 nM, 6 days",reference: DMSO,1.02 and 0.86 and 1.08
NCI-H446 sgCtrl,dose-response,"62.5 nM, 6 d",reference: DMSO-treated,0.382 and 0.334 and 0.296
NCI-H446,,"20 nM, 6 days",reference: DMSO,0.438 and 0.401 and 0.448
NCI-H446,Vi-Cell counting,"20 nM, 3 days, together with: Mps1 inhibitor 3 nM",reference: DMSO,0.816 and 0.711

# Study 3
# Structure (SMILES): c1ccc2c(-c3ccncc3)c[nH]c2c1
# Read-out: enzyme activity
# Mode: inhibitor
# Tested at: 0.5 µM
# Reference: control
target,remaining activity [%]
"GRK2 (Homo sapiens, UniProt P25098)",97.7
"MYLK (Homo sapiens, UniProt Q15746)",96.8
"CSF1R (Homo sapiens, UniProt P07333)",101
"GSK3A (Homo sapiens, UniProt P49840)",103
"EPHA7 (Homo sapiens, UniProt Q15375)",98.2
"FLT3 (Homo sapiens, UniProt P36888)",91.5
"Aurora kinase C (AURKC, Homo sapiens, UniProt Q9UQB9)",93.1
"BMX (Homo sapiens, UniProt P51813)",95.8
"FGFR4 (Homo sapiens, UniProt P22455)",84.6
"CSK (Homo sapiens, UniProt P41240)",107
"RPS6KA1 (Homo sapiens, UniProt Q15418)",93.8
"RPS6KB1 (Homo sapiens, UniProt P23443)",79.9
"NUAK1 (Homo sapiens, UniProt O60285)",94.8
"SRPK3 (Homo sapiens, UniProt Q9UPE1)",96
"EPHB2 (Homo sapiens, UniProt P29323)",114
"PRKCE (Homo sapiens, UniProt Q02156)",81.5
"PAK2 (Homo sapiens, UniProt Q13177)",84
"PIM2 (Homo sapiens, UniProt Q9P1W9)",105
"PRKCG (Homo sapiens, UniProt P05129)",99.4
"GRK6 (Homo sapiens, UniProt P43250)",103
"SGK1 (Homo sapiens, UniProt O00141)",93.8

# Study 4
# Organism: Sarcocystis neurona
# Read-out: parasite growth
# Tested at: 10 µM
# Time: 96 h
Structure (SMILES),inhibition [%]
Cc1noc(NS(=O)(=O)c2ccc(N)cc2)c1C,-17.6
O=C(c1ccc(OCCN2CCCCC2)cc1)c1c(-c2ccc(O)cc2)sc2cc(O)ccc12,-4.4
CNC(=C[N+](=O)[O-])NCCSCc1ccc(CN(C)C)o1,-18
CCCC1O[C@@H]2C[C@H]3[C@@H]4CCC5=CC(=O)C=C[C@]5(C)[C@H]4[C@@H](O)C[C@]3(C)[C@]2(C(=O)CO)O1 (stereo partly shown),-19.3
CN1CCN(C2=Nc3cc(F)ccc3Cc3ccccc32)CC1,-5.9
CC[C@H]1OC(=O)[C@H](C)C(=O)[C@H](C)[C@@H](O[C@@H]2O[C@H](C)C[C@H](N(C)C)[C@H]2O)[C@](C)(OC)C[C@@H](C)C(=O)[C@H](C)[C@H]2N(CCCCn3cnc(-c4cccnc4)c3)C(=O)O[C@]12C,-4.4
CS(=O)(=O)c1ccc(C2=C(c3ccccc3)C(=O)OC2)cc1,-1.7
OCc1cccnc1,-19.1
CN1[C@@H]2CC[C@H]1C[C@@H](OC(=O)c1c[nH]c3ccccc13)C2,-5.7
Nc1ccc(O)c(C(=O)O)c1,-15.8
C[C@@H]1C[C@H]2[C@@H]3CCC4=CC(=O)C=C[C@]4(C)[C@@]3(F)[C@@H](O)C[C@]2(C)[C@@]1(O)C(=O)CO,-4.2
NS(=O)(=O)Cc1noc2ccccc12,-10.2
CCCNC(=O)NS(=O)(=O)c1ccc(Cl)cc1,-16.1
